Experimental data collected from several papers.
Compare with care: the assays were run in different laboratories. “And” joins repeats or separate records; there may be more than shown.
UniProt P11388, sequence (whole entry, looked up): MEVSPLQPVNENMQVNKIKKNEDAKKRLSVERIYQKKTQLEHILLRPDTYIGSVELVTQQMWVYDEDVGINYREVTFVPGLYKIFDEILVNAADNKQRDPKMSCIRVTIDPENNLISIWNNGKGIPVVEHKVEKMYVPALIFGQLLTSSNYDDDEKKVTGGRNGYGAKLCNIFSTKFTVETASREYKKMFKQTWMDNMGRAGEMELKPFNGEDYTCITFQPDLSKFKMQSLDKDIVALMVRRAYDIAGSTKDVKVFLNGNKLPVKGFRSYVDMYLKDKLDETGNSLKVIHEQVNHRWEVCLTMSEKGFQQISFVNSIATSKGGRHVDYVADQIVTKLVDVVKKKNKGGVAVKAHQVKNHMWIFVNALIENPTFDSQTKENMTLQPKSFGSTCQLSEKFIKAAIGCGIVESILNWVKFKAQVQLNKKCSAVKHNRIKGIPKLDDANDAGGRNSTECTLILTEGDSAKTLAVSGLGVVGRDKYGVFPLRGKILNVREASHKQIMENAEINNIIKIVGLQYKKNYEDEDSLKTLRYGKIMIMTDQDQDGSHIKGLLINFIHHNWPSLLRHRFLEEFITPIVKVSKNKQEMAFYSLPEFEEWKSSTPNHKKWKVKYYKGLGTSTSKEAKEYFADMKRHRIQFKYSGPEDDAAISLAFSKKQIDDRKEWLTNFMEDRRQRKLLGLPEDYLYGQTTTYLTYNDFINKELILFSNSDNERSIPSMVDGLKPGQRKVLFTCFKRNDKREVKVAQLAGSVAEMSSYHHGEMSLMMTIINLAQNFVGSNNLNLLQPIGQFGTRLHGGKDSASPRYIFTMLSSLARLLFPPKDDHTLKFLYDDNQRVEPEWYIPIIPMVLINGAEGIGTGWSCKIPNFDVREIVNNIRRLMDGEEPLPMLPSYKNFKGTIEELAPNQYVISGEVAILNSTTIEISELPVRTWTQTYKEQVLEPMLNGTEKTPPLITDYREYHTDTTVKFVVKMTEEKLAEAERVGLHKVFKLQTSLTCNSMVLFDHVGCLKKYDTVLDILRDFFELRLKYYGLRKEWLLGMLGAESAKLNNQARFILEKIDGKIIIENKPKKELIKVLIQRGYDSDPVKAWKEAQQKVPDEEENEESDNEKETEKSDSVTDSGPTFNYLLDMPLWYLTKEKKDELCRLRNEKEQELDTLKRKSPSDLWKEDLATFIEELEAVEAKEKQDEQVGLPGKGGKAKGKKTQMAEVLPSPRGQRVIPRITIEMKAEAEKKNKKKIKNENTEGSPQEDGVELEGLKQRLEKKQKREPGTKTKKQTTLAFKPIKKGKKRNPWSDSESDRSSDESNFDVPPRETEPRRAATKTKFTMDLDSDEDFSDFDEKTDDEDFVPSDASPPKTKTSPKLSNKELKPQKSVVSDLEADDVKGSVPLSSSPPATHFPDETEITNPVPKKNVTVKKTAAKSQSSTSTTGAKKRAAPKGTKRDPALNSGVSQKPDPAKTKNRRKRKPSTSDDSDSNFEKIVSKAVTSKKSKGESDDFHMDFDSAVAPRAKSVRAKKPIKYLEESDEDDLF

| SMILES | target or system | assay | system | conditions | scale | endpoint | value |
| --- | --- | --- | --- | --- | --- | --- | --- |
| CC1COc2ccccc2N1C(=O)C(Cl)Cl (stereo not drawn) | carboxylesterase |  | female rhesus monkey liver cytosol | 5 µM, pH 7.4, without GSH |  | scaled intrinsic clearance | 42 mL/min/g liver |
| COc1cc([C@@H]2c3cc4c(cc3[C@@H](O[C@@H]3O[C@@H]5CO[C@@H](C)O[C@H]5[C@H](O)[C@H]3O)[C@H]3COC(=O)[C@H]23)OCO4)cc(OC)c1O | TOP2A (Homo sapiens, UniProt P11388) | DNA cleavage |  | 7.8 µM |  | mean linear DNA | 8.76% |
| CCCCCCCC(=O)OCC(COC(=O)CCCCCCC)OC(=O)CCCCCCC |  | antagonist, qPCR in vivo, item: Shp and Bsep mRNA | Oryzias latipes | dose not given |  | activity call | active |
| Cc1cccc(Nc2ccccc2C(=O)O)c1C |  | vericiguat glucuronidation, inhibitor, item: metabolite M-1 formation | human liver microsomes | 10.0 µM | baseline: no inhibitor | remaining activity | 85.2% |
| CO/N=C(\C(=O)N[C@@H]1C(=O)N2C(C(=O)O)=C(COC(C)=O)CS[C@H]12)c1csc(N)n1 | Salmonella enterica serovar Typhimurium | broth microdilution | clinical isolate RKI-No 437/14 |  |  | MIC | > 16 µg/mL |
| Fc1ccccc1Cc1nc(-c2nc(C(F)(F)F)n[nH]2)cn2ccnc12 |  |  | healthy volunteers | 0.3 mg, single ascending dose | baseline: placebo | choice reaction time | -5.15 ms |
| COC(=O)Nc1c(N)nc(-c2nn(Cc3ccccc3F)c3ncc(F)cc23)nc1N |  |  | healthy white men | dose not given, day 13, 312 h, LS mean difference, with: sildenafil 25 mg | baseline: placebo | seated SBP maximum decrease | -4.8 mmHg |
| COC(=O)N[C@H](C(=O)N[C@@H](Cc1ccccc1)[C@@H](O)CN(Cc1ccc(-c2ccccn2)cc1)NC(=O)[C@@H](NC(=O)OC)C(C)(C)C)C(C)(C)C |  | vericiguat glucuronidation, inhibitor, item: metabolite M-1 formation | human liver microsomes | 5.0 µM | baseline: no inhibitor | remaining activity | 75% |
| N#CCC1CCN(c2nc(Nc3ccc(N4CCC(O)CC4)cc3)c3c(=O)[nH]ncc3n2)CC1 |  | vs placebo, Olink multiplex | human, serum | 80 mg, day 29, unit not given | baseline: placebo | osteopontin level difference | -1.37 |
| OC[C@H]1O[C@@H](O[C@@H]2[C@@H](O)[C@H](O[C@@H]3[C@@H](O)[C@H](O[C@@H]4[C@@H](O)[C@H](O[C@H]5[C@H](O)[C@@H](CO)OC(O)[C@@H]5O)O[C@H](CO)[C@H]4O)O[C@H](CO)[C@H]3O)O[C@H](CO)[C@H]2O)[C@H](O)[C@@H](O)[C@@H]1O (stereo partly drawn) | Bacteroides thetaiotaomicron | binding, ITC |  | pH 7.0, 25 °C, middle domain |  | -TΔS | -13.2 kcal/mol |
| C[C@@H]1C[C@H]2O[C@@]3(O[C@@H]2C(C)(C)O)[C@H](O)[C@@]2(C)[C@@H]4CC[C@H]5C(C)(C)[C@@H](O[C@@H]6OC[C@@H](O)[C@H](O)[C@H]6O)CC[C@@]56C[C@@]46CC[C@]2(C)[C@@H]13 |  | agonist, qPCR in vivo, item: Shp and Bsep mRNA | Oryzias latipes | dose not given |  | activity call | active |
| O=C(CCCCCCC(=O)Nc1ccccc1)NO |  | BCRP transport function, item: pheophorbide A accumulation | human, leukaemic blasts ex vivo | concentration not given, 3 h, with: Ko143 10 µM | baseline: without Ko143 | percent change | -3.9% and -4.2% and -4.3% and -2.1% and -1.2% and 11.5% |
